Experimental data collected from several papers.
Numbered parts are unrelated; each lists some results of a single study. Substitutions count along the parent as printed.

Series 1 — target: tungstate, free oxyanion; method: microfluidic competitive inhibition; sample: in vitro, cell-free expressed; tested at: not given; direction: lower = stronger binding
Notes: derived from inhibition constants, unchanged parent 2230 nM
Parent: PafA, mature enzyme, eGFP fusion (Elizabethkingia meningoseptica, UniProt Q9KJX5); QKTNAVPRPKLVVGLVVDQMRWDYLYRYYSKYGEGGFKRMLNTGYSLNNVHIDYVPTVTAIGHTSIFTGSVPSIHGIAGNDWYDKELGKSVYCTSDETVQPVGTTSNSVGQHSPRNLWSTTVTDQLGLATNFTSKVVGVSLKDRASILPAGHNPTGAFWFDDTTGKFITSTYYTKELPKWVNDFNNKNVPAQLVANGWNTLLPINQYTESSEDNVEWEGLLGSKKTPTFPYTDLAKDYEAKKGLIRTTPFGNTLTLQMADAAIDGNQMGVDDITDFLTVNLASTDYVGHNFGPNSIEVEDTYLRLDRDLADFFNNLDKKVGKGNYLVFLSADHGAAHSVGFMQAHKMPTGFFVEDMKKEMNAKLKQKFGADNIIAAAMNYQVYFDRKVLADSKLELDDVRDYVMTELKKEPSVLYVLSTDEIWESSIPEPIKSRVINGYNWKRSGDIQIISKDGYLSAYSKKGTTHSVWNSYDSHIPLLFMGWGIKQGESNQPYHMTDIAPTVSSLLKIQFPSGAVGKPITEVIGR
Under “oxyanion analog dissociation constant”, `D275V` is recorded as 1310 nM.
For `T208G`, “oxyanion analog dissociation constant” read 2080 nM.
`V12G`: “oxyanion analog dissociation constant” 2090 nM.
Under “oxyanion analog dissociation constant”, `L41V` is recorded as 2360 nM.
Under “oxyanion analog dissociation constant”, `L507V` is recorded as 2230 nM.
For `T174G`, “oxyanion analog dissociation constant” read 2360 nM.
`V435G` — result for “oxyanion analog dissociation constant”: 1220 nM.
`T278G`: “oxyanion analog dissociation constant” 2220 nM.
`A376V`: “oxyanion analog dissociation constant” 1900 nM.
`E410V` — result for “oxyanion analog dissociation constant”: 2320 nM.
`I447G` — result for “oxyanion analog dissociation constant”: 1350 nM.
`I431V`: “oxyanion analog dissociation constant” 2330 nM.
Under “oxyanion analog dissociation constant”, `S210V` is recorded as 2880 nM.
`G222V`: “oxyanion analog dissociation constant” 2530 nM.
`I74G` — result for “oxyanion analog dissociation constant”: 633 nM.
Under “oxyanion analog dissociation constant”, `G36A` is recorded as 2410 nM.
`K38V` — result for “oxyanion analog dissociation constant”: 2510 nM.
Under “oxyanion analog dissociation constant”, `F352V` is recorded as 2230 nM.
`V137A`: “oxyanion analog dissociation constant” 2510 nM.
For `D332G`, “oxyanion analog dissociation constant” read 18300 nM.
Under “oxyanion analog dissociation constant”, `V468A` is recorded as 1570 nM.
`K432G`: “oxyanion analog dissociation constant” 1080 nM.
`Y459V`: “oxyanion analog dissociation constant” 2410 nM.
Under “oxyanion analog dissociation constant”, `A60G` is recorded as 2930 nM.
For `V435A`, “oxyanion analog dissociation constant” read 1910 nM.

Series 2 — target: CCNA2, cyclin fold, Cln2 fusion (human); method: yeast growth competition, sequencing; sample: yeast; notes: strong parent motif; relative to: not given; direction: higher = stronger binding
Parent: viral docking peptide; YKVKRRLVFGADD; partner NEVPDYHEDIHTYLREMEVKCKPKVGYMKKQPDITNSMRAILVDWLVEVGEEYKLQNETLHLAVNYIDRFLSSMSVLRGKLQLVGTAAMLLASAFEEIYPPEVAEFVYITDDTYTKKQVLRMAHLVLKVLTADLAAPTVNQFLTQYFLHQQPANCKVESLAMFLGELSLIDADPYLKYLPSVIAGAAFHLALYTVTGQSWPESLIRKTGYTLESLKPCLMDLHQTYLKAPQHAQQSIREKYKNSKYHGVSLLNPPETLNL
Under “normalised enrichment score”, `YKVKRRLVFRADD [G10R]` is recorded as 5.9.
`YMVKRRLVFGADD [K2M]` — result for “normalised enrichment score”: 6.31.
Under “normalised enrichment score”, `YKVKRRLVFGCDD [A11C]` is recorded as 6.17.
Under “normalised enrichment score”, `YLVKRRLVFGADD [K2L]` is recorded as 6.07.
`YKVKRRLVFGAGD [D12G]` — result for “normalised enrichment score”: 6.39.
`YKVKRRLVAGADD [F9A]`: “normalised enrichment score” -0.125.
`YKVKRRGVFGADD [L7G]` — result for “normalised enrichment score”: 0.367.
Under “normalised enrichment score”, `YKVLRRLVFGADD [K4L]` is recorded as 2.17.
`YKVKRRLVFGSDD [A11S]` — result for “normalised enrichment score”: 6.22.
For `YWVKRRLVFGADD [K2W]`, “normalised enrichment score” read 5.67.
Under “normalised enrichment score”, `YKVKRRLMFGADD [V8M]` is recorded as 6.75.
For `YKQKRRLVFGADD [V3Q]`, “normalised enrichment score” read 1.97.
Under “normalised enrichment score”, `YKVKRRLVPGADD [F9P]` is recorded as 0.365.
`YKSKRRLVFGADD [V3S]` — result for “normalised enrichment score”: 6.29.
Under “normalised enrichment score”, `YKVKRRLVFGEDD [A11E]` is recorded as 6.36.
`YKVKRRLVFGAWD [D12W]` — result for “normalised enrichment score”: 6.1.
`YKVKRRLVIGADD [F9I]`: “normalised enrichment score” 1.49.
For `YKVKRRLGFGADD [V8G]`, “normalised enrichment score” read 5.72.
Under “normalised enrichment score”, `YKVKRRLVFGAVD [D12V]` is recorded as 6.62.
`YKVDRRLVFGADD [K4D]` — result for “normalised enrichment score”: 2.9.
Under “normalised enrichment score”, `YKVKIRLVFGADD [R5I]` is recorded as 3.45.
`YKVKRRLVQGADD [F9Q]`: “normalised enrichment score” 1.11.
`YKYKRRLVFGADD [V3Y]`: “normalised enrichment score” 5.21.
`YKVKSRLVFGADD [R5S]` — result for “normalised enrichment score”: 1.48.
Under “normalised enrichment score”, `YQVKRRLVFGADD [K2Q]` is recorded as 5.97.

Series 3 — effect on: binding; method: phage display NGS; molecule type: peptide; tested at: concentration not given; relative to: input library
Target: UDP-N-acetylglucosamine--peptide N-acetylglucosaminyltransferase 110 kDa subunit (OGT, Homo sapiens, UniProt O15294)
Sequence of UniProt O15294 (whole entry, looked up): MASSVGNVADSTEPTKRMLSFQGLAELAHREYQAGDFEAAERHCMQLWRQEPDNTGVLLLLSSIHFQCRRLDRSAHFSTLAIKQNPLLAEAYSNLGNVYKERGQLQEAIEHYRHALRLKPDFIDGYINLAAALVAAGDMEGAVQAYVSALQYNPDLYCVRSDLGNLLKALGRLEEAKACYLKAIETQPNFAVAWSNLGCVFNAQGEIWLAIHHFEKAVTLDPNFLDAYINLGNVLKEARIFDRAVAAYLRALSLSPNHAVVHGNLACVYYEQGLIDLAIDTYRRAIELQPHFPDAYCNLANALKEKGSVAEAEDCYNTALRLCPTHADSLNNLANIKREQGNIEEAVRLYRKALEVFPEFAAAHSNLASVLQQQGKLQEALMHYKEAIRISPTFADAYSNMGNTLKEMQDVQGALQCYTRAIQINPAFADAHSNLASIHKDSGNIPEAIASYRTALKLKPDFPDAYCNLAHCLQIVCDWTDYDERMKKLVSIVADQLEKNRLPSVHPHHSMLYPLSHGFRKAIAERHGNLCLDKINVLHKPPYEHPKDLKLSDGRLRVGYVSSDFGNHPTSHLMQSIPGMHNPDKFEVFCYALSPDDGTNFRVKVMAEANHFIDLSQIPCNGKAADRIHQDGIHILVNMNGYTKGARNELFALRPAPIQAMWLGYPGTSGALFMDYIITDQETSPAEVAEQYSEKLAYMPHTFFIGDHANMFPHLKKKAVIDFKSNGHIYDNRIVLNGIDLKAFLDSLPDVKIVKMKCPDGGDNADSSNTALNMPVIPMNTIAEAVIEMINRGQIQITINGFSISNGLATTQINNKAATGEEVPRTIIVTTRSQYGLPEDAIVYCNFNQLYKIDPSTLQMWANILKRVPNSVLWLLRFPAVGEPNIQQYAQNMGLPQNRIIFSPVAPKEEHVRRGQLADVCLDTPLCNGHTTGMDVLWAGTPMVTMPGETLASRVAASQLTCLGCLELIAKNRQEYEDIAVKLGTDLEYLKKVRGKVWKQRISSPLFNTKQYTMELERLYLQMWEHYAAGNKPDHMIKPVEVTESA
For `SIVYEYKKGQIHNHR`, “enrichment fold change” read 3.37.
Under “enrichment fold change”, `YDHQRVAMLHNIHRV` is recorded as 3.2.
Under “enrichment fold change”, `HLMHHRLEPDHAHQV` is recorded as 14.2.
`GAYSPIYQIFYSRIT` — result for “enrichment fold change”: 58.6.
For `HIAHQYPHQAKPSGH`, “enrichment fold change” read 4.27.
`NFMPFYPITITAIES`: “enrichment fold change” 14.2.
For `HIQHYHHDIQYTRDL`, “enrichment fold change” read 6.56.
`DFVMPEYIIEYQIRS`: “enrichment fold change” 5.2.
`KFTELPMYHDARHHQ`: “enrichment fold change” 3.62.
For `TYHFPHTHNHVQQHH`, “enrichment fold change” read 14.9.
`TIEDHVHHHAHRLDR` — result for “enrichment fold change”: 4.87.
Under “enrichment fold change”, `HWHSAAIDPHRHRGE` is recorded as 5.06.
Under “enrichment fold change”, `HFTREPPTHHHKLQE` is recorded as 8.76.
`QVFWPQYQINIPKLN`: “enrichment fold change” 4.76.
`DHSHFHERMYVRHDI` — result for “enrichment fold change”: 2.22.
Under “enrichment fold change”, `HLSQDHHPKRQKHTH` is recorded as 4.94.
Under “enrichment fold change”, `VERWFPPKYQMPIQG` is recorded as 14.8.
`AHHQGAVDHMRTHHS` — result for “enrichment fold change”: 3.82.
For `WAGWRGTDALHSHWD`, “enrichment fold change” read 3.48.
`WTPHPAHDNKPHYR` — result for “enrichment fold change”: 2.7.
`HTPMREHQQIHWHKF` — result for “enrichment fold change”: 7.96.
`QSMGFSYPPAYLIKY` — result for “enrichment fold change”: 1.72.
For `TYWHRDHTQTHIPSY`, “enrichment fold change” read 7.01.
`ENTLWSPRYQIKWAQ`: “enrichment fold change” 3.78.
For `HRDVNNHSLHQSPTH`, “enrichment fold change” read 4.93.

Other studies, line by line
`PhoQ, residues 284 288 289 292 302 303 SVTLVV` gave a fold induction of 6.75 (PhoP, residues 12 14 15 18 19 AYFRS (Escherichia coli, UniProt P23836); Sort-seq, measured: YFP reporter; E. coli; PhoQ-PhoP variant library, together with: 10 µM Mg2+; relative to: high Mg2+ state, higher = stronger signaling).
